{"data": "Results from different studies", "target": "5-hydroxytryptamine receptor 2A (HTR2A, Homo sapiens, UniProt P28223)", "note": "Lines come from different studies, so protocols differ. ± marks the error that the study gave.", "UniProt P28223, sequence (whole entry, looked up)": "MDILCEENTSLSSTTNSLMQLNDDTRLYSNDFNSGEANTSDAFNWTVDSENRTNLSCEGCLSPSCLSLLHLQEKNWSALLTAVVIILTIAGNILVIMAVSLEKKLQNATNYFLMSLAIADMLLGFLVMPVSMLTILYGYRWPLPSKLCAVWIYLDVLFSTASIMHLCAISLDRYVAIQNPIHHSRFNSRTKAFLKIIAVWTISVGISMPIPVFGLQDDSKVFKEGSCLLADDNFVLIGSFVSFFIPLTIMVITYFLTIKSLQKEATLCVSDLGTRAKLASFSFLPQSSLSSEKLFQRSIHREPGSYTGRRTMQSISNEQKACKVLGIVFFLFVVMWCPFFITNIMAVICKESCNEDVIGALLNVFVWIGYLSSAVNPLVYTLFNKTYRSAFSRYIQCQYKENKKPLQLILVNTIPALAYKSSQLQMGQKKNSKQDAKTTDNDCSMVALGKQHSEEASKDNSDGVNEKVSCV"}
{"Structure (SMILES)": "CCS(=O)(=O)c1nc(S(=O)(=O)c2ccccc2Cl)c(N2CCN(C)C(=O)[C@H]2C)s1", "concentration": "10 µM", "quantity": "inhibition", "value": "24.1%"}
{"Structure (SMILES)": "Cc1ncccc1OC[C@H]1CN(CCN2CCc3ccccc32)CCO1", "effect on": "radioligand binding", "concentration": "concentration not given", "added": "[3H]ketanserin", "quantity": "inhibition", "value": "33.6%"}
{"Structure (SMILES)": "O=C(NO)c1ccc(CN2CCCCc3ccccc32)c(F)c1", "effect on": "radioligand binding", "method": "radioligand displacement", "concentration": "10 µM", "notes": "mean of replicates", "quantity": "inhibition", "value": "13.5%"}
{"Structure (SMILES)": "CN(C(=O)n1cnc(-c2ccc[n+]([O-])c2)c1)C1CCCCC1", "effect on": "receptor binding", "concentration": "10 µM", "notes": "subtype 5HT2A", "quantity": "inhibition", "value": "-0.79%"}
{"Structure (SMILES)": "C[C@@H]1Cc2ccccc2N1C(=O)NCCCCN(C)[C@@H]1Cc2cccc3[nH]c(=O)n(c23)C1", "effect on": "binding", "added": "[3H]5-HT", "quantity": "Hill slope", "value": "-0.71 ± 0.04"}
{"Structure (SMILES)": "Cc1ccnc(C)c1OC[C@H]1CN(CCN2CCc3ccccc32)CCO1", "effect on": "radioligand binding", "concentration": "concentration not given", "added": "[3H]ketanserin", "quantity": "inhibition", "value": "53.9%"}
{"Structure (SMILES)": "c1cc(N2CCN(CCCOc3ccc(CN4CCOCC4)cc3)CC2)c2ccsc2c1", "concentration": "10 µM", "quantity": "inhibition", "value": "101 ± 2.6%"}
{"Structure (SMILES)": "OCCCN1CC[C@@H]2C[C@H]1c1cc(-c3ccc(C(F)(F)F)cc3)ccc12", "effect on": "radioligand binding", "method": "PDSP competition binding", "concentration": "10 µM", "quantity": "inhibition", "value": "< 50%"}
{"Structure (SMILES)": "Cc1ccnc(OC[C@H]2CN(CC(=O)N3CCc4ccccc43)CCO2)c1", "effect on": "radioligand binding", "concentration": "concentration not given", "added": "[3H]ketanserin", "quantity": "inhibition", "value": "-1.1%"}
{"note": "Excerpt of the above:"}
{"Structure (SMILES)": "OCCCN1CC[C@@H]2C[C@H]1c1cc(-c3ccc(C(F)(F)F)cc3)ccc12", "effect on": "radioligand binding", "method": "PDSP competition binding", "concentration": "10 µM", "quantity": "inhibition", "value": "< 50%"}
